Measured values collected from several papers.
Compare with care: the assays were run in different laboratories. Several values in a cell are separate wells, animals, samples, runs or records. Numbers after ± are the reported error.
GRK4: G protein-coupled receptor kinase 4 (GRK4, Homo sapiens, UniProt P32298)
Chain of UniProt P32298 (whole entry, looked up): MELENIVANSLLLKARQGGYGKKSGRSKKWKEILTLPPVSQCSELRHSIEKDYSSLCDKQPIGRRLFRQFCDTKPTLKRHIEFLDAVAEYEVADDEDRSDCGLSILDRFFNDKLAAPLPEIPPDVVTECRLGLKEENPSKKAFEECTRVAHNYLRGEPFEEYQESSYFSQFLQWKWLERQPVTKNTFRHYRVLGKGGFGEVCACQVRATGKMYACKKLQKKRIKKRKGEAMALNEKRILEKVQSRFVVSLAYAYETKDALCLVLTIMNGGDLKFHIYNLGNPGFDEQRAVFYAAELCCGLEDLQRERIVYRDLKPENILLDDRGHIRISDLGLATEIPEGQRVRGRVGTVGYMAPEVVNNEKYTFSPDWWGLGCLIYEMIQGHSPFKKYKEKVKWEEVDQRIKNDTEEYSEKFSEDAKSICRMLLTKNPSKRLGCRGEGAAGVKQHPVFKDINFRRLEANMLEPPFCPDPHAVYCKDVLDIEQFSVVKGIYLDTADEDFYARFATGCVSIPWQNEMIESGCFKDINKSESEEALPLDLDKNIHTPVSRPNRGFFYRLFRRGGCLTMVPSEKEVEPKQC
DYRK2: Dual specificity tyrosine-phosphorylation-regulated kinase 2 (DYRK2, Homo sapiens, UniProt Q92630)
Chain of UniProt Q92630 (whole entry, looked up): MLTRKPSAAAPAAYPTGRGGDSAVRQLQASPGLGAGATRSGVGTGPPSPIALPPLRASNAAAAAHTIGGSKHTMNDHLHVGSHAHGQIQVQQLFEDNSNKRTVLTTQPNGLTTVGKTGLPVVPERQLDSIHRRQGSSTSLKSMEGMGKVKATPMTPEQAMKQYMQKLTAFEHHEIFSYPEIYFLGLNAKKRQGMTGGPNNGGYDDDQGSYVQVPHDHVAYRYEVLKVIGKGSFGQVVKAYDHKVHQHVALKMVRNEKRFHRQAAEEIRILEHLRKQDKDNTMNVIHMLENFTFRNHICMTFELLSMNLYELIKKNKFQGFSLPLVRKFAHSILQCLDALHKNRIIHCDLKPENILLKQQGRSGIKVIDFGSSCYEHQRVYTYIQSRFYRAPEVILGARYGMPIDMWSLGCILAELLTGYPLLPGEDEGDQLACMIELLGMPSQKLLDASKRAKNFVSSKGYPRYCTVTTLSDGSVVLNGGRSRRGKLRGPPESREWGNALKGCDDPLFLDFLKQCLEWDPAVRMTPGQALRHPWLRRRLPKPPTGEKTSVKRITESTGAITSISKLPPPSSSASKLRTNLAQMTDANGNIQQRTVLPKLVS
EPHB4: Ephrin type-B receptor 4 (EPHB4, Homo sapiens, UniProt P54760)
Chain of UniProt P54760 (whole entry, looked up): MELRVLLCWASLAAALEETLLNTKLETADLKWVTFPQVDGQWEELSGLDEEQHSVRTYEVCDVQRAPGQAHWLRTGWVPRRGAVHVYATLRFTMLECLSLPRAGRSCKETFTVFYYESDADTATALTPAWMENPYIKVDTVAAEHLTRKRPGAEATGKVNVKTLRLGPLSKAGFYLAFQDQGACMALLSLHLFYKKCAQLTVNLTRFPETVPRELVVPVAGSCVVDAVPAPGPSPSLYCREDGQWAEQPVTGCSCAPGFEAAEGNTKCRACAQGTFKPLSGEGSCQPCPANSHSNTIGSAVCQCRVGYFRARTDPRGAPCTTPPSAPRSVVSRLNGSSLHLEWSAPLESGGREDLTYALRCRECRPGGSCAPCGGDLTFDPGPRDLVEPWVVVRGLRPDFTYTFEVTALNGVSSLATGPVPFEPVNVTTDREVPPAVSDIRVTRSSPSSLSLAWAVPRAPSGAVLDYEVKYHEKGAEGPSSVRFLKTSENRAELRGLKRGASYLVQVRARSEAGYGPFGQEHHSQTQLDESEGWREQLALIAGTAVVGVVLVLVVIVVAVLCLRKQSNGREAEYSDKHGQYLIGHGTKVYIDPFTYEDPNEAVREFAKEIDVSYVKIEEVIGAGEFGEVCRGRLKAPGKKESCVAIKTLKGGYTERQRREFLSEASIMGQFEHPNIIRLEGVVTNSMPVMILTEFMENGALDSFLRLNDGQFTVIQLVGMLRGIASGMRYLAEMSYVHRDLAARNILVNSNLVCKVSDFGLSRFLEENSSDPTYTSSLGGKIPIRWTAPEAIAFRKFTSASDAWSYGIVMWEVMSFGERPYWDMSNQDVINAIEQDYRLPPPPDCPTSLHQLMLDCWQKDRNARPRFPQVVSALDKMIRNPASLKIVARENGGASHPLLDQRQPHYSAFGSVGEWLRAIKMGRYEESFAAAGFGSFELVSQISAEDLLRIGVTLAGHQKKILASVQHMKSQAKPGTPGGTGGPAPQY
MARK3: MAP/microtubule affinity-regulating kinase 3 (MARK3, Homo sapiens, UniProt P27448)
Chain of UniProt P27448 (whole entry, looked up): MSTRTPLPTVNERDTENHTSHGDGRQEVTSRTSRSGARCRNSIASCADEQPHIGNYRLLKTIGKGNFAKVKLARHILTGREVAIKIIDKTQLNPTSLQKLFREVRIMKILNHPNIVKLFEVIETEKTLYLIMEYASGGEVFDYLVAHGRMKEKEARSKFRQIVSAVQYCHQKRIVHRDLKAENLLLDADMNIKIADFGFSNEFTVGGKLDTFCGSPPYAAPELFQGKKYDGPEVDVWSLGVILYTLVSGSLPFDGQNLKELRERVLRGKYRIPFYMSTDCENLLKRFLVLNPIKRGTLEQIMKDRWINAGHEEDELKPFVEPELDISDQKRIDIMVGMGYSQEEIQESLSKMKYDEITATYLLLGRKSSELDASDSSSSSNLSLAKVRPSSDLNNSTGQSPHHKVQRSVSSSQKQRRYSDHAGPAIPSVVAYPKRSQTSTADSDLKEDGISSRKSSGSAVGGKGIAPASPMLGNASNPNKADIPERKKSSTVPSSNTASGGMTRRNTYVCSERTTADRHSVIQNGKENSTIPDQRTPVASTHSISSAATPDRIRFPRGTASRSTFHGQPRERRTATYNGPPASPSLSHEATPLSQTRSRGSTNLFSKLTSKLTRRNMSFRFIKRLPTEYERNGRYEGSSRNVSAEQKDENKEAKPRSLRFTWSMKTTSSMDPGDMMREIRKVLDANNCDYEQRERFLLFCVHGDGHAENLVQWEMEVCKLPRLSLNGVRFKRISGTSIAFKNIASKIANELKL
Chain of UniProt P48729 (whole entry, looked up): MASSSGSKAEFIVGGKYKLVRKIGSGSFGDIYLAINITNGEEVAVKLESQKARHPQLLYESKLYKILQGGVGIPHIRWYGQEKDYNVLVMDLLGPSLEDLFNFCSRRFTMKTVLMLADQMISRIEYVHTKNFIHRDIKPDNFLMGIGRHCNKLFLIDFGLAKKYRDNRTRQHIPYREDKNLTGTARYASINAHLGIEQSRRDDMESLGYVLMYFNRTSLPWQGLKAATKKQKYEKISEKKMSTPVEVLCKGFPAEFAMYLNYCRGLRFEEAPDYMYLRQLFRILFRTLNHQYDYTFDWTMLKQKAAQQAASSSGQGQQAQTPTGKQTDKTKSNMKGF
Chain of UniProt P27338 (whole entry, looked up): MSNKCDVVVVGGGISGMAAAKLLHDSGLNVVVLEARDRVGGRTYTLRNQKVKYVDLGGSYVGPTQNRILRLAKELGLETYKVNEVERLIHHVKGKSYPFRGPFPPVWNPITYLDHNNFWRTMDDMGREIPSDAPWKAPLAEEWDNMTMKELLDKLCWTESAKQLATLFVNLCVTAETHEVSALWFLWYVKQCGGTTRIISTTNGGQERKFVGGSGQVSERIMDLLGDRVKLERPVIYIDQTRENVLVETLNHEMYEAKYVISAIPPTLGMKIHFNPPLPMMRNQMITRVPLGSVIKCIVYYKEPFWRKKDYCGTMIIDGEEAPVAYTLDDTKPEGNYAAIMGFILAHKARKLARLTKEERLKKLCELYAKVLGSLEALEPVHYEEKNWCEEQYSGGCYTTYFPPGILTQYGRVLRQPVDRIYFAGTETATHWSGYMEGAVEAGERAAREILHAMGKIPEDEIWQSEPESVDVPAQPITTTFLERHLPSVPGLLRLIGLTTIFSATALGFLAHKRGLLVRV
Chain of UniProt O60331 (whole entry, looked up): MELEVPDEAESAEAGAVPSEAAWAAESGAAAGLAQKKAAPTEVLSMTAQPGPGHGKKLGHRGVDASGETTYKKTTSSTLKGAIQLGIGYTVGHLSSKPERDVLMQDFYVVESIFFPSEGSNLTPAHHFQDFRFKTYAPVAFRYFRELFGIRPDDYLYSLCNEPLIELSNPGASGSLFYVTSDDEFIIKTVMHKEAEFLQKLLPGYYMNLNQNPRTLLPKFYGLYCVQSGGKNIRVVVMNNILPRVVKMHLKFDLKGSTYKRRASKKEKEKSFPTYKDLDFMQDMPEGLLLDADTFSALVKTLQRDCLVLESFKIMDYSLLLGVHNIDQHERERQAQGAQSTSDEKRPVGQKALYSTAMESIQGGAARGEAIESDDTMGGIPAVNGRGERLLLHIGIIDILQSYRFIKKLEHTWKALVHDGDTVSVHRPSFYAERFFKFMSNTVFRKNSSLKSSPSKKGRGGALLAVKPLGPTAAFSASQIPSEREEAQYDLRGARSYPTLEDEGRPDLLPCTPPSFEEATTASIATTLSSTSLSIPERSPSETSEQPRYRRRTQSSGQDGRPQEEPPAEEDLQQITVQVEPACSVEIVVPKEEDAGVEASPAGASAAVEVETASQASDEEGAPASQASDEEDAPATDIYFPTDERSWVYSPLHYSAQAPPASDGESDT

CC(C)OCCn1c(=S)[nH]c(=O)c2[nH]ccc21
remaining activity (Myeloperoxidase (MPO, Homo sapiens, UniProt P05164); LDL lipid peroxidation, inhibitor, cholesteryl ester hydroperoxide; 0.0046 µM): 106%

c1cnc2ccc(Nc3nc(NC4CC4)c4nc[nH]c4n3)cc2c1
remaining activity (Protein kinase C delta type (PRKCD, Homo sapiens, UniProt Q05655); kinase activity, inhibitor, SelectScreen kinase profiling; 1 µM; relative to: control): 77%

C/C(CC(O)(C(F)(F)F)C(F)(F)F)=N/Nc1ccc([N+](=O)[O-])cc1[N+](=O)[O-]
remaining activity (Lysine-specific demethylase 4B (KDM4B, Homo sapiens, UniProt O94953); concentration not given): 56%

COc1cc(N2CCN(C)CC2)ccc1Nc1nc(N)n(C(=O)NCc2ccccc2S(=O)(=O)C(C)C)n1
remaining activity (GRK4; enzyme activity; 10 µM; relative to: control): 16%

Fc1ccc(-c2nn3cc(F)ccc3c2-c2ccncc2)cc1
remaining activity (Casein kinase I isoform alpha (CSNK1A1, Homo sapiens, UniProt P48729); kinase activity, inhibitor, ADP-Glo; 0.574 µM, 0.5 h): 56.9% and 48.3%

COc1cc(N2CCN(C)CC2)ccc1Nc1nc(N)n(C(=S)NCc2c(Cl)cccc2Cl)n1
remaining activity (DYRK2; enzyme activity; 10 µM; relative to: control): 17%

COc1cc(F)ccc1-c1ncnc(Nc2cccc(C[S@](C)(=N)=O)c2)n1
remaining activity (Serine/threonine-protein kinase MRCK beta (CDC42BPB, Homo sapiens, UniProt Q9Y5S2); kinase activity; 10 µM, together with: 10 µM ATP): 117%

O=C(Nc1ccc(F)c(Br)c1)c1ccc2c(c1)C(=O)NC2=O
remaining activity (Amine oxidase [flavin-containing] B (MAOB, Homo sapiens, UniProt P27338); inhibitor; 4 × IC50, before dialysis; relative to: control): 24.6%

C=CC(=O)N1CCC[C@@H](n2nc(-c3ccc(Oc4ccccc4)cc3)c3c(N)ncnc32)C1
remaining activity (EPHB4; 1 µM): 149%

O=C(NC1CCC1)c1ccc2nc(-c3cccc(NS(=O)(=O)NCCN4CCCCC4)c3)cn2c1
remaining activity (EPHB4; enzyme activity; 10 µM): 85%

COc1ccc(F)cc1C(=O)NCc1ccc(-c2nn([C@@H](C)C(F)(F)F)c(N)c2C(N)=O)cc1
remaining activity (Receptor tyrosine-protein kinase erbB-2 (ERBB2, Homo sapiens, UniProt P04626); kinase activity, inhibitor, HotSpot radiometric; 1000 nM, together with: ATP at Km): 66.2 ± 1.3%

C[C@H]1[C@H](OC(=O)CCC(=O)O)O[C@@H]2O[C@@]3(C)CC[C@H]4[C@H](C)CC[C@@H]1[C@@]24OO3
remaining activity (Non-structural polyprotein pORF1, helicase domain (Hepatitis E virus genotype 1, UniProt P33424); ATPase activity, inhibitor, colorimetric; 19.5 µM, preincubation 30 min, together with: ATP 400 µM; relative to: untreated): 84.4%

COc1cc(N2CCN(C)CC2)ccc1Nc1nc(N)n(C(=O)NCc2c(Cl)cccc2Cl)n1
remaining activity (GRK4; enzyme activity; 10 µM; relative to: control): 6.7%

Cc1cc(Nc2cc(N3CCN(C)CC3)nc(Sc3ccc(NC(=O)C4CC4)cc3)n2)[nH]n1
remaining activity (DYRK2; kinase activity, KinaseProfiler; 0.03 µM, species human; relative to: control): 103%

O=C(O)c1ccc(Nc2ncc3c(n2)-c2ccc(Cl)cc2C(c2c(F)cccc2F)=NC3)cc1
remaining activity (Plk3(h); kinase activity; 1 µM): 105%

Nc1ncc2c(n1)-c1c([nH]c3ccc(-c4ccc(F)cc4)cc13)CCC2
remaining activity (MARK3; kinase activity, inhibitor, radiometric; 1 µM, together with: ATP at Km): 90%

COc1cc(Nc2ncc3c(n2)-c2ccc(Cl)cc2C(c2c(F)cccc2OC)=NC3)ccc1C(=O)O
remaining activity (SGK2; kinase activity; 1 µM): 107%

CC(C)C(=O)Nc1n[nH]c2cc(-c3cccc(NS(=O)(=O)C4CC4)c3)ccc12
remaining activity (Phosphatidylinositol 4-phosphate 5-kinase type-1 gamma (PIP5K1C, Homo sapiens, UniProt O60331); ADP-Glo; 3.33 µM; relative to: DMSO): 52%

CNc1ncc2c(/C=C/C(=O)N3CCC(OC)CC3)nn(Cc3cccc(C(F)(F)F)c3)c2n1
remaining activity (MARK3; kinase activity, inhibitor; 1 µM; relative to: untreated control): 104%

N[C@@H]1CC[C@@H](c2ccc(Cl)c(Cl)c2)c2ccccc21
remaining activity (Sodium-dependent dopamine transporter (SLC6A3, Homo sapiens, UniProt Q01959, F326A); dopamine uptake; 0.003 µM, 0.03333 h, F326A mutant, together with: [3H]dopamine; relative to: no inhibitor): 82.3%

O=C1NC(=O)/C(=C/c2ccc(-c3ccc(F)cc3O)o2)S1
remaining activity (DYRK2; enzyme activity; 10 µM): 20%

COc1cc(-c2cncc3c2CN(C)Cc2cc(N4CCNCC4)ccc2-3)cc(OC)c1OC
remaining activity (Insulin receptor, activated (INSR, Homo sapiens, UniProt P06213); kinase activity; 1 µM, together with: ATP 10 µM; relative to: DMSO control): 116%

Excerpt of the above:
O=C(O)c1ccc(Nc2ncc3c(n2)-c2ccc(Cl)cc2C(c2c(F)cccc2F)=NC3)cc1
remaining activity (Plk3(h); kinase activity; 1 µM): 105%

COc1cc(N2CCN(C)CC2)ccc1Nc1nc(N)n(C(=S)NCc2c(Cl)cccc2Cl)n1
remaining activity (DYRK2; enzyme activity; 10 µM; relative to: control): 17%
